Assay results pooled from the literature.
Each line is one published result; not all experiments were run side by side. Values joined by “and” are separate records of one study, mostly repeats; a detail may differ. Numbers after ± are the reported error. In brackets after ≈: the same amount, converted by molar mass.
Chain of UniProt Q9H3G5 (whole entry, looked up): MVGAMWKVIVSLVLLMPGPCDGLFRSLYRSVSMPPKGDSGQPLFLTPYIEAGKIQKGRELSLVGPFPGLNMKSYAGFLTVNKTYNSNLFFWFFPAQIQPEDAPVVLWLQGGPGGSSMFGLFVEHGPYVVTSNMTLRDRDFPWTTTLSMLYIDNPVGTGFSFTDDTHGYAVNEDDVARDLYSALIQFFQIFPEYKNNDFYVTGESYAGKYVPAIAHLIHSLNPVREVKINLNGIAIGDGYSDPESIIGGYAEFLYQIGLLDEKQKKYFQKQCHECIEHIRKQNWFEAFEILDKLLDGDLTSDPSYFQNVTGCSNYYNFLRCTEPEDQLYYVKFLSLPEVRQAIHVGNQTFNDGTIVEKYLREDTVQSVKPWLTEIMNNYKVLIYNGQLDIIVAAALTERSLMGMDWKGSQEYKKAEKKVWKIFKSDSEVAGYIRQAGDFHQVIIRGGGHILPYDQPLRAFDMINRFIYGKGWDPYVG
Chain of UniProt O15111 (whole entry, looked up): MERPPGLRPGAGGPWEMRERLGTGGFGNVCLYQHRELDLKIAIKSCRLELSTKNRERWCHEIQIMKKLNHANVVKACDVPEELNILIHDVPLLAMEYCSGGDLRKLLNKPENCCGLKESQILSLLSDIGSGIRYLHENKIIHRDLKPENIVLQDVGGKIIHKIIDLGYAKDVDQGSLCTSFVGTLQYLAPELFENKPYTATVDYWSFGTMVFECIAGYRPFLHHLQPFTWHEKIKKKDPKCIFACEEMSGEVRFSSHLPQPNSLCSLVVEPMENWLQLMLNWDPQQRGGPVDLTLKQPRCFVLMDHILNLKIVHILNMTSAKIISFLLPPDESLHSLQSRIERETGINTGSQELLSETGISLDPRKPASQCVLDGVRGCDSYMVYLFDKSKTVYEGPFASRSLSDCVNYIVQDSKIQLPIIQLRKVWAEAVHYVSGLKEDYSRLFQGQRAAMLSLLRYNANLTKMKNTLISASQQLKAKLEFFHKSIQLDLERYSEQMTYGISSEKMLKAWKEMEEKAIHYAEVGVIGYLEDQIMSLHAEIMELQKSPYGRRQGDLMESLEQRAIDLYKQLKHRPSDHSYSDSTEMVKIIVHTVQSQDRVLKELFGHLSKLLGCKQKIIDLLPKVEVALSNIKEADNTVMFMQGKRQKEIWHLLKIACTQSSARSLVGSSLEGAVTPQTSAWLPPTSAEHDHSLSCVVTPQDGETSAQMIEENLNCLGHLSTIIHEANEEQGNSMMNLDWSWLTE
Chain of UniProt P34995 (whole entry, looked up): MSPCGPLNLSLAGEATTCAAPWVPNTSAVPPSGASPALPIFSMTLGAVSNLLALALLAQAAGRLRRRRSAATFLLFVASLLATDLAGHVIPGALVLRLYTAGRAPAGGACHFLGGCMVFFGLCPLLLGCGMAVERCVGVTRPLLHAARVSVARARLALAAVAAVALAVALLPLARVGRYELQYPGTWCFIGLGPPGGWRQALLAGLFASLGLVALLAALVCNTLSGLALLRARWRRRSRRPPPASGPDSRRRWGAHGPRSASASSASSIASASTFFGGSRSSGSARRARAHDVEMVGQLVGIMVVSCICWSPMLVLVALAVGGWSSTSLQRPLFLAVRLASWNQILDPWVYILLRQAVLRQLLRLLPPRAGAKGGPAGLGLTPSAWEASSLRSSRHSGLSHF
Chain of UniProt P11473 (whole entry, looked up): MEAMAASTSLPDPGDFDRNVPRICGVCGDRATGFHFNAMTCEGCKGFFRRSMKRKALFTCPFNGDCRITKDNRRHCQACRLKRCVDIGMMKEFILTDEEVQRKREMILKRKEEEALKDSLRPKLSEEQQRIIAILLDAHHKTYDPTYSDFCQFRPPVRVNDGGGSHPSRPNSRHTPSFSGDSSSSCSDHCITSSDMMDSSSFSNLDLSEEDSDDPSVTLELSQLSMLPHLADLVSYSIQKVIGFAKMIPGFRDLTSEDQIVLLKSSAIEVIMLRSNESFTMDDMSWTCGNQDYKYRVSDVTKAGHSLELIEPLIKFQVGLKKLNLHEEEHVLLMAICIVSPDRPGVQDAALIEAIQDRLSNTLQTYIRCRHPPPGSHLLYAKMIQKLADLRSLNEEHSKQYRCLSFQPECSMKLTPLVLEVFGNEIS
Chain of UniProt P11229 (whole entry, looked up): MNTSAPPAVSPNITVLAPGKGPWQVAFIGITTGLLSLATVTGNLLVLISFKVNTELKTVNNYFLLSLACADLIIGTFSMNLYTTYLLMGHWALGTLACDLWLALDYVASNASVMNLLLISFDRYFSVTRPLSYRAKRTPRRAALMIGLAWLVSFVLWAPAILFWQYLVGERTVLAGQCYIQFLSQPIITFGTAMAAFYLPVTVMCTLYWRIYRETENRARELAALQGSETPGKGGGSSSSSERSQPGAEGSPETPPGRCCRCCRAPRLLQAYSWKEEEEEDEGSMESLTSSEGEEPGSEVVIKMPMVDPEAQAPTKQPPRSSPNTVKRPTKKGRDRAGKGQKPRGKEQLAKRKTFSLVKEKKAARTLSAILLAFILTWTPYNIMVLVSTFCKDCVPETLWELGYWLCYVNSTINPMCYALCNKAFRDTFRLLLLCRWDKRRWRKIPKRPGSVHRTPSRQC
Chain of UniProt O43353 (whole entry, unmodified, looked up): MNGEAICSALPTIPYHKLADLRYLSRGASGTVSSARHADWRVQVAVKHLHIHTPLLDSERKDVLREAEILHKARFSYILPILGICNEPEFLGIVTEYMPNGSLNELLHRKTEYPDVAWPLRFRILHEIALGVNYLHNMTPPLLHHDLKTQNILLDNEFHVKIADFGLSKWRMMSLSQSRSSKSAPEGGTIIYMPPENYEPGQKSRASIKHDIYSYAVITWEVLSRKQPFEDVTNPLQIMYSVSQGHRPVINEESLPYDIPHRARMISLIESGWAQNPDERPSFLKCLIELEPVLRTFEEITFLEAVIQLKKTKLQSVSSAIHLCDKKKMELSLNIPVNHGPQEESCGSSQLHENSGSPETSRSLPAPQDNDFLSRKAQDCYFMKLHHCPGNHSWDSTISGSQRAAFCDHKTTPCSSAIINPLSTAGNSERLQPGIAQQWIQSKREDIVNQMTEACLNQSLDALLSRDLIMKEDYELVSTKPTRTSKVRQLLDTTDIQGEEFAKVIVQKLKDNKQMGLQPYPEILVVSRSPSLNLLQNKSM

| Structure (SMILES) | tested on | assay | test system | conditions | how to read | measurement | result |
| --- | --- | --- | --- | --- | --- | --- | --- |
| CN1CCN(c2cc(-c3ccncc3)c(-c3ccc4ccccc4c3)nn2)CC1 | CHRM1 (Homo sapiens, UniProt P11229) | antagonist, FLIPR | – | 10 µM | – | inhibition | 0.7% |
| CS(=O)(=O)CCCn1c(Cn2c(=O)n(CC(F)(F)F)c3ccncc32)cc2cc(Cl)ccc21 | respiratory syncytial virus | RT-qPCR | hospitalized infants 1-24 months, nasal swab | oral, 6, 4.5 or 3 mg/kg daily, day 3, mid dose by age cohort | reference: placebo | LS mean difference vs placebo | -0.91 log10 copies/mL |
| CCCNCCc1c[nH]c2cccc(O)c12.CCCNCCc1c[nH]c2cccc(O)c12.O=C(O)/C=C/C(=O)O | – | – | C57BL/6J mice | subcutaneous, 0.3 mg/kg, 30 min | – | distance travelled | 2470 ± 180 cm |
| CC[C@H](C)[C@@H]1NC(=O)[C@@H]2CCCN2C(=O)[C@H](CC(C)C)NC(=O)[C@H](CC(C)C)NC(=O)CNC(=O)[C@@H](NC(=O)[C@@H](NC(=O)[C@H](CC(=O)O)NC(=O)CNC(=O)[C@@H](NC(=O)[C@H](C)NC(=O)CNC(=O)[C@H](CCCCN)NC(=O)[C@H](CC(C)C)NC(=O)[C@H](CC(C)C)NC(=O)[C@H](CCCCN)NC(=O)CNC(=O)[C@@H](NC(=O)[C@@H](N)CC(C)C)C(C)C)C(C)C)C(C)C)CSSC[C@@H](C(=O)O)NC1=O | – | RNA-seq, measured: Gimap7 | mouse, traumatic brain injury model, frontal cortex and hippocampus | dose not given | reference: TBI alone | log2 fold change | -4.28 |
| C=CCNCCc1c[nH]c2cccc(O)c12.C=CCNCCc1c[nH]c2cccc(O)c12.O=C(O)/C=C/C(=O)O | – | – | C57BL/6J mice | subcutaneous, 0.03 mg/kg | – | head twitch count | 6.3 ± 0.9 |
| COP(=S)(OC)Oc1ccc([N+](=O)[O-])c(C)c1 | nanobody A4 | ic-ELISA | – | concentration not given | reference: coumaphos IC50 over compound IC50, molar basis | cross-reactivity | < 1% |
| N=C(N)NCCC[C@@H]1NC(=O)[C@H](CCCCNC(=O)c2ccc(CNC34CNCCNCC(N)(CNCCNC3)CNCCNC4)cc2)NC(=O)[C@@H](Cc2ccc(O)cc2)NC(=O)[C@H](CC(=O)O)NC(=O)CNC1=O [copper-64 labelled] | – | ex vivo gamma counting | male athymic nude mouse, PC-3 xenograft, PC-3 tumour | 7.4 MBq, 48 h, decay-corrected | – | tissue uptake | 2.46 ± 1.03 %ID/g |
| C[C@H]1CN(c2n[nH]c3nc(N[C@H]4CC[C@H](NS(=O)(=O)CCC(F)(F)F)CC4)ncc23)CCO1 | CHUK (Homo sapiens, UniProt O15111) | inhibitor, Kinobeads competition profiling | – | 20 µM | reference: vehicle | relative abundance | 1.13 |
| CCNCCc1c[nH]c2cccc(O)c12.CCNCCc1c[nH]c2cccc(O)c12.O=C(O)CCC(=O)O | – | – | C57BL/6J mice | subcutaneous, 0.3 mg/kg | – | head twitch response | 7.8 ± 0.8 count/30 min |
| COc1cc(Nc2ncc(F)c(Nc3ccc4c(n3)NC(=O)C(C)(C)O4)n2)cc(OC)c1OC | Vitamin D3 receptor (VDR, Homo sapiens, UniProt P11473) | – | – | – | – | IC50 | > 10000 nM |
| CC[C@H](C)[C@H](NC(=O)[C@H](Cc1ccccc1)NC(=O)[C@H](CCC(=O)O)NC(=O)[C@H](CCCNC(=N)N)NC(=O)[C@H](C)NC(=O)[C@H](C)NC(=O)[C@H](CCC(N)=O)NC(=O)[C@H](CCC(=O)O)NC(=O)[C@H](CCC(=O)O)NC(=O)[C@H](CC(C)C)NC(=O)[C@H](Cc1ccc(O)cc1)NC(=O)[C@H](CO)NC(=O)[C@H](CO)NC(=O)[C@@H](NC(=O)[C@H](CC(=O)O)NC(=O)[C@H](CO)NC(=O)[C@@H](NC(=O)[C@H](Cc1ccccc1)NC(=O)[C@@H](NC(=O)CNC(=O)[C@H](CCC(=O)O)NC(=O)[C@H](C)NC(=O)CCc1c[nH]cn1)[C@@H](C)O)[C@@H](C)O)C(C)C)C(=O)N[C@@H](C)C(=O)N[C@@H](Cc1c[nH]c2ccccc12)C(=O)N[C@@H](CC(C)C)C(=O)N[C@H](C(=O)N[C@@H](CCCNC(=N)N)C(=O)NCC(=O)N[C@@H](CCCNC(=N)N)C(=O)N[C@@H](CCCCNC(=O)COCCOCCNC(=O)COCCOCCNC(=O)CC[C@H](NC(=O)CCCCCCCCCCCCCCCCC(=O)O)C(=O)O)C(=O)NCC(=O)NCC(=O)N[C@@H](CO)C(=O)N[C@@H](CCCCNc1c(NCCCCCN(O)C(=O)CCC(=O)NCCCCCN(O)C(=O)CCC(=O)NCCCCCN(O)C(C)=O)c(=O)c1=O)C(=O)O)C(C)C | – | UPLC-MS | rat, plasma | subcutaneous, 20 nmol/kg | – | dose-normalised AUC | 72.9 kg·h/L |
| COc1cc(CCC[P+](c2ccccc2)(c2ccccc2)c2ccccc2)c(OC)c2c1OCO2.[I-] | UO-31 | SRB | – | – | – | LC50 | > -4 log M |
| CCCCCCCCCCCCCCCCCC[N+](C)(C)CCCCCCCCCC[N+](C)(C)CCCCCCCCCCCCCCCCCC.[Br-].[Br-] | influenza A virus A/PR/8/34 (H1N1) | – | – | concentration not given, post-treatment | – | HA titre reduction | 3 log units |
| CCCCCCCCCCCCCCCC(=O)OCC(CSC[C@H](N)C(=O)N[C@@H](CO)C(=O)N[C@@H](CCCCN)C(=O)N[C@@H](CCCCN)C(=O)N[C@@H](CCCCN)C(=O)N[C@@H](CCCCN)C(=O)Nc1ccc(Cn2c(O)nc3c(N)nc(NCCCC)nc32)cc1)OC(=O)CCCCCCCCCCCCCCC (stereo partly drawn) | HFF-1 | – | – | 1 µg/mL, 48 h | – | viability | 92.5% |
| C[C@]12CC[C@H]3[C@@H](CC=C4CC(O)CC[C@@]43CO)[C@@H]1CCC2O (stereo partly drawn) | – | measured: TIMP-1 | rat, GAN diet-induced MASH, plasma, pooled | dose not given | reference: vehicle | fold reduction | ~1.6 fold |
| CN1CCN(S(=O)(=O)c2cc([N+](=O)[O-])ccc2N(CCOS(C)(=O)=O)CCOS(C)(=O)=O)CC1 | – | – | NSG mice, sample BC PDX | intraperitoneal, 25 mg/kg weekly x3 | reference: treated over vehicle | EFS ratio (T/C) | 5.5 |
| COc1ccc(N2C(=O)N(c3c(C)cccc3Cl)Cc3cnc(Nc4ccc(C5CCN(C)CC5)cc4OC)nc32)nc1 | RIPK2 (Homo sapiens, UniProt O43353) | kinase activity | – | 0.5 µM | – | inhibition | 77% |

| Structure (SMILES) | tested on | assay | test system | conditions | how to read | measurement | result |
| --- | --- | --- | --- | --- | --- | --- | --- |
| COc1cc2c(Oc3ccc4[nH]c(C)cc4c3F)ccnc2cc1OCC1(N)CC1 | – | – | paediatric recurrent refractory sarcoma | 8 mg/kg | – | grade 1 or 2 Hyperthyroidism | 0% |
| O=C(O)/C=C/C(=O)O.Oc1cccc2[nH]cc(CCNCc3ccccc3)c12 | – | – | C57BL/6J mice | subcutaneous, 0.3 mg/kg | – | head twitch count | 7.3 ± 0.5 |
| CC(C)C[C@@H]1NC(=O)[C@H](CC(C)C)NC(=O)[C@H](Cc2c[nH]c3ccccc23)NC(=O)[C@H](CO)NC(=O)[C@H](Cc2c[nH]c3ccccc23)NC(=O)[C@@H]2CCCN2C(=O)[C@H](CC(C)C)NC(=O)[C@H](Cc2c[nH]cn2)NC(=O)[C@@H]2CCCN2C(=O)[C@H](CC(N)=O)NC(=O)[C@H](C)NC(=O)[C@H](Cc2ccc(O)cc2)NC(=O)[C@H](CS)NC(=O)[C@H](CCCCNC(=O)CN2CCN(CC(=O)O)CCN(CC(=O)O)CCN(CC(=O)O)CC2)NC1=O [lutetium-177 labelled] | – | – | Balb/c mouse, female, 4T1 tumour, lung | intravenous, 3.7 MBq, 24 h | – | tissue uptake | 0.03 %ID |
| C[C@]12CC[C@H]3[C@@H](CCC4=CC(=O)CC[C@@]43C)[C@@H]1CC[C@@H]2O | human UGT | glucuronidation | human liver microsomes | 200 µM, 60 min, together with: FBI-COOH 50 µM | – | inhibition | > 50% |
| C[C@]12CCC(=O)C(O)=C1CC[C@@H]1[C@@H]2CC[C@]2(C)C(=O)CC[C@@H]12 | human iPSC-derived cardiomyocytes | MyBP-C/MYH ratio, plate-normalised SD score | – | concentration not given, primary screen | direction not given | activity score | 4 |
| CC[C@H](C)[C@H](NC(=O)[C@H](C)NC(=O)[C@H](CCCCN)NC(=O)[C@H](CC(C)C)NC(=O)[C@H](C)NC(=O)[C@@H](NC(=O)[C@H](Cc1c[nH]cn1)NC(=O)[C@H](CC(C)C)NC(=O)[C@@H](NC(=O)[C@@H](NC(=O)[C@H](CCCCN)NC(=O)[C@H](C)NC(=O)[C@H](C)NC(=O)[C@H](CO)NC(=O)[C@H](CCCCN)NC(=O)[C@H](Cc1ccccc1)NC(=O)[C@@H](NC(=O)[C@H](CCCCN)NC(=O)[C@H](CC(C)C)NC(=O)[C@H](Cc1ccccc1)NC(=O)[C@H](CO)NC(=O)[C@H](CCCCN)NC(=O)[C@H](Cc1c[nH]c2ccccc12)NC(=O)[C@H](CCCCN)NC(C)=O)[C@@H](C)O)[C@@H](C)O)C(C)C)[C@@H](C)O)C(=O)N[C@@H](CO)C(=O)N[C@@H](CO)C(N)=O | Enterococcus faecium | – | Enterococcus faecalis | 40 strains | – | MIC geometric mean | 14.2 µg/mL (≈ 4.83 µM) |
| O=C(c1ccc(Cl)cc1)N1CCN2C(=O)N(OC(=O)N3CCOc4ccccc43)C(=O)C2C1 (stereo not drawn) | Probable serine carboxypeptidase CPVL (CPVL, Homo sapiens, UniProt Q9H3G5) | MS-based ABPP | SW-620 conditioned medium | 10 µM, 1 h, 37 °C | reference: compound over DMSO, lower = more inhibition | mean protein ratio | 1.09 |
| CCCCCCCCCCCCCCCC[N+](C)(C)CCCCCC[N+](C)(C)CCCCCCCCCCCCCCCC.[Br-].[Br-] | influenza A virus A/PR/8/34 (H1N1) | – | – | concentration not given, post-treatment | – | HA titre reduction | 4 ± 1 log units |
| O=C(Nc1cnccc1Cl)N1CCN(Cc2ccc3c(c2)OC(F)(F)O3)CC1 | PTGER1 (Homo sapiens, UniProt P34995) | binding, measured: EP1 | – | 50 µM, human, together with: [3H]prostaglandin E2 | – | inhibition | 10% |
| O=C(O)/C=C/C(=O)O.Oc1cccc2[nH]cc(CCNC3CCCCC3)c12 | – | – | C57BL/6J mice | subcutaneous, 1 mg/kg, 30 min | – | distance travelled | 2760 ± 219 cm |
| CC[C@H](C)[C@H](NC(=O)[C@@H](NC(=O)[C@H](CCCNC(=N)N)NC(=O)[C@H](C)NC(=O)[C@@H]1CC(=O)NCC(=O)N[C@@H]([C@@H](C)O)C(=O)N2CCC[C@H]2C(=O)NCC(=O)N[C@@H](Cc2ccccc2)C(=O)N[C@@H](CCC(N)=O)C(=O)N[C@@H]([C@@H](C)O)C(=O)N2CCC[C@H]2C(=O)N1)C(C)C)C(=O)N[C@@H](CO)C(=O)N[C@@H](CCCNC(=N)N)C(=O)N[C@@H](Cc1ccccc1)C(=O)NCC(=O)N[C@@H](Cc1ccccc1)C(=O)N[C@@H](CC(N)=O)C(=O)O | Pseudomonas aeruginosa RNA polymerase | inhibitor | – | – | – | transcript elongation | inhibited |
| CCC(CC)O[C@@H]1C=C(C(=O)O)C[C@H](N)[C@H]1NC(C)=O | influenza A virus A/PR/8/34 (H1N1) | – | – | concentration not given, post-treatment | – | protection | 71.7 ± 2.6% |
| COc1c(CCC[P+](c2ccccc2)(c2ccccc2)c2ccccc2)cc2c(c1OC)OCO2.[I-] | RXF 393 | SRB | – | – | – | LC50 | -4.15 log M |
| CC[C@H](C)[C@@H]1NC(=O)[C@H](CO)NC(=O)[C@@H]2CCCN2C(=O)[C@@H](NC(=O)CN)CSSC[C@@H]2NC(=O)CNC(=O)[C@H](C)NC(=O)[C@H](CC(C)C)NC(=O)[C@@H]3CSSC[C@@H](C(=O)NCC(=O)O)NC(=O)[C@H](Cc4ccccc4)NC(=O)CNC(=O)[C@H](CC(N)=O)NC(=O)[C@@H]4CCCN4C(=O)CNC(=O)[C@H](CSSC[C@H](NC(=O)[C@H](CCCNC(=N)N)NC(=O)[C@H](Cc4c[nH]cn4)NC(=O)[C@H](CCCNC(=N)N)NC(=O)[C@H](CCCCN)NC(=O)[C@H](C(C)C)NC(=O)[C@H](CCCNC(=N)N)NC(=O)[C@H](CC(N)=O)NC1=O)C(=O)N[C@@H](CCCCN)C(=O)N[C@@H](CCC(N)=O)C(=O)N[C@@H](CC(=O)O)C(=O)N[C@@H](CO)C(=O)N[C@@H](CC(=O)O)C(=O)N3)NC(=O)[C@H](C(C)C)NC2=O | HEK293, Wnt1-transfected | Wnt signalling | – | – | – | IC50 | 108 ± 28 nM |
| CC(C)(C)NCCc1c[nH]c2cccc(O)c12.CC(C)(C)NCCc1c[nH]c2cccc(O)c12.O=C(O)/C=C/C(=O)O | – | – | C57BL/6J mice | subcutaneous, 0.3 mg/kg | – | head twitch count | 9 ± 1.6 |
| C[C@H]1O[C@@H](O[C@H]2CC[C@@]3(C)[C@@H](CC[C@]4(C)[C@@H]3C=C[C@]35OC[C@@]6(CCC(C)(C)C[C@H]63)[C@@H](O)C[C@]54C)[C@]2(C)CO)[C@H](O)[C@@H](O[C@@H]2O[C@H](CO)[C@@H](O)[C@H](O)[C@H]2O)[C@H]1O | – | – | mouse, pair-fed, AAV8-TBG-Null, liver | dose not given, high dose | – | hepatic total cholesterol | 0.0936 mmol/g protein and 0.0837 mmol/g protein and 0.0719 mmol/g protein and 0.0998 mmol/g protein and 0.0776 mmol/g protein and 0.0425 mmol/g protein |
